Measurements collected from several papers.
Compare with care: the assays were run in different laboratories.
Method: steady-state kinetics
B1: enzyme R201K (Arabidopsis thaliana, UniProt O82390); chain MNARALLCSSNIHSLYTSNRPPEKTSSSRSLRNLKPSPKSLRVWIYPRNRSSVFRVLVRSSDKSESSNSYYVEGDKVSGNNDVVSDSPSSIVLPWWEEFPKRWVIVLLCFSAFLLCNMDRVNMSIAILPMSAEYGWNPATVGLIQSSFFWGYLLTQIAGGIWADTVGGKRVLGFGVIWWSIATILTPVAAKLGLPYLLVVKAFMGVGEGVAMPAMNNILSKWVPVQERSRSLALVYSGMYLGSVTGLAFSPFLIHQFGWPSVFYSFGSLGTVWLTLWLTKAESSPLEDPTLLPEERKLIADNCASKEPVKSIPWRLILSKPPVWALISCHFCHNWGTFILLTWMPTYYHQVLKFNLMESGLLSVFPWMTMAISANAGGWIADTLVSRGFSVTNVRKIMQTIGFLGPAFFLTQLKHIDSPTMAVLCMACSQGTDAFSQSGLYSNHQDIAPRYSGVLLGLSNTAGVLAGVLGTAATGHILQHGSWDDVFTISVGLYLVGTVIWNLFSTGEKIID
B2: UGT3A2 S435Y (Homo sapiens, UniProt Q3SY77); chain AKILTISTVGGSHYLLMDRVSQILQDHGHNVTMLNHKRGPFMPDFKKEEKSYQVISWLAPEDHQREFKKSFDFFLEETLGGRGKFENLLNVLEYLALQCSHFLNRKDIMDSLKNENFDMVIVETFDYCPFLIAEKLGKPFVAILSTSFGSLEFGLPIPLSYVPVFRSLLTDHMDFWGRVKNFLMFFSFCRRQQHMQSTFDNTIKEHFTEGSRPVLSHLLLKAELWFINSDFAFDFARPLLPNTVYVGGLMEKPIKPVPQDLENFIAKFGDSGFVLVTLGSMVNTCQNPEIFKEMNNAFAHLPQGVIWKCQCSHWPKDVHLAANVKIVDWLPQSDLLAHPSIRLFVTHGGQNSIMEAIQHGVPMVGIPLFGDQPENMVRVEAKKFGVSIQLKKLKAETLALKMKQIMEDKRYKYAAVAASVILRSHPLSPTQRLVGWIDHVLQTGGATHLKPYVFQQPWHEQYLLDVFVFLLGLTLGTLWLCGKLLGMAVWWLRGARKVKET
B3: FMO3 E158K/E308G (Homo sapiens, UniProt P31513); chain GKKVAIIGAGVSGLASIRSCLEEGLEPTCFEKSNDIGGLWKFSDHAEEGRASIYKSVFSNSSKEMMCFPDFPFPDDFPNFMHNSKIQEYIIAFAKEKNLLKYIQFKTFVSSVNKHPDFATTGQWDVTTERDGKKESAVFDAVMVCSGHHVYPNLPKKSFPGLNHFKGKCFHSRDYKEPGVFNGKRVLVVGLGNSGCDIATELSRTAEQVMISSRSGSWVMSRVWDNGYPWDMLLVTRFGTFLKNNLPTAISDWLYVKQMNARFKHENYGLMPLNGVLRKEPVFNDELPASILCGIVSVKPNVKEFTGTSAIFEDGTIFEGIDCVIFATGYSFAYPFLDESIIKSRNNEIILFKGVFPPLLEKSTIAVIGFVQSLGAAIPTVDLQSRWAAQVIKGTCTLPSMEDMMNDINEKMEKKRKWFGKSETIQTDYIVYMDELSSFIGAKPNIPWLFLTDPKLAMEVYFGPCSPYQFRLVGPGQWPGARNAILTQWDRSLKPMQTRVVGRLQKPCFFFHWLKLFAIPILLIAVFLVLT
B4: COMT (Canis lupus familiaris, UniProt Q60F99); chain MGDTKEQRILRHVLQHAVAGDPQSVLEAIDTYCSQKEWAMNVGDKKGQILDAVVREQRPSVLLELGAYCGYSAVRMARLLEPGARLITIELNPDFAAITQQMLDFAGLQDRVTILTGASQDTIPELKKKHDVDTLDMVFLDHWKDRYLPDTLLLEECGLLQKGTVLLADNVICPGTPEFLAYVRGNNRFECTHFPSYLEYSKRVDGLEKVVYKGPGSPTQP
B5: CMBL (Homo sapiens, UniProt Q96DG6); chain MANEAYPCPCDIGHRLEYGGLGREVQVEHIKAYVTKSPVDAGKAVIVIQDIFGWQLPNTRYIADMISGNGYTTIVPDFFVGQEPWDPSGDWSIFPEWLKTRNAQKIDREISAILKYLKQQCHAQKIGIVGFCWGGTAVHHLMMKYSEFRAGVSVYGIVKDSEDIYNLKNPTLFIFAENDVVIPLKDVSLLTQKLKEHCKVEYQIKTFSGQTHGFVHRKREDCSPADKPYIDEARRNLIEWLNKYM
B6: enzyme (Tanacetum cinerariifolium, UniProt H6U1I8); chain SQQAAALFIFGDSVFDPGNNNHINTHVNFKANFWPYGQSYFSSPTGRFSDGRIIPDFIAEYASLPIIPAYLEPNNDFTHGANFASAGAGALIASHAGLAVGLQTQLRYFGDLVDHYRQNLGDIKSRQLLSDAVYLFSCGGNDYQSPYYPYTQEQYVDIVIGNMTNVIKGIYEKGGRKFGVVNVPLIGCWPGMRAKQPGNTCNTEVDELTRLHNQAFAKRLEQLEKQLEGFVYAKFDLSTAILNRMKNPSKYGFKEGESACCGSGPFGGNYDCGRIKEFGLCDNATEYFFFDPFHPNELASRQFAEMFWDGDSMVTQPYNLKALFEGKPSTKYLPNDEL
B7: UGT1A9 (Homo sapiens, UniProt O60656); chain GKLLVVPMDGSHWFTMRSVVEKLILRGHEVVVVMPEVSWQLGRSLNCTVKTYSTSYTLEDLDREFKAFAHAQWKAQVRSIYSLLMGSYNDIFDLFFSNCRSLFKDKKLVEYLKESSFDAVFLDPFDNCGLIVAKYFSLPSVVFARGILCHYLEEGAQCPAPLSYVPRILLGFSDAMTFKERVRNHIMHLEEHLLCHRFFKNALEIASEILQTPVTEYDLYSHTSIWLLRTDFVLDYPKPVMPNMIFIGGINCHQGKPLPMEFEAYINASGEHGIVVFSLGSMVSEIPEKKAMAIADALGKIPQTVLWRYTGTRPSNLANNTILVKWLPQNDLLGHPMTRAFITHAGSHGVYESICNGVPMVMMPLFGDQMDNAKRMETKGAGVTLNVLEMTSEDLENALKAVINDKSYKENIMRLSSLHKDRPVEPLDLAVFWVEFVMRHKGAPHLRPAAHDLTWYQYHSLDVIGFLLAVVLTVAFITFKCCAYGYRKCLGKKGRVKKAHKSKTH
Chain of UniProt P10632 (whole entry, looked up): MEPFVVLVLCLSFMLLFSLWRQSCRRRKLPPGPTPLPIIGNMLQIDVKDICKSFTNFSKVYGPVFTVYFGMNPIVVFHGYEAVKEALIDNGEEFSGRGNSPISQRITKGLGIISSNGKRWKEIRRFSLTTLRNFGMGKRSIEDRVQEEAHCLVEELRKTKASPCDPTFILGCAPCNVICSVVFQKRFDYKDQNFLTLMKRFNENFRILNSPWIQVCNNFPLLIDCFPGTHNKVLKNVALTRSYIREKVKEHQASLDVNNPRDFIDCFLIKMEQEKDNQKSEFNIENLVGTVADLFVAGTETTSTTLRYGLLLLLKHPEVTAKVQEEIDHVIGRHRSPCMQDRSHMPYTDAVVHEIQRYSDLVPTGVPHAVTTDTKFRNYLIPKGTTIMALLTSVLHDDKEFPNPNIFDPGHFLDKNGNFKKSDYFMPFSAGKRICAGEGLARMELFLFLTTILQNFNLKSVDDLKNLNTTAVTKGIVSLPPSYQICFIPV

| Molecule | substrate | system | setting | Vmax/Km [µL/min/mg] |
| --- | --- | --- | --- | --- |
| CYP2C8 (Homo sapiens, UniProt P10632) | COc1cc2c(cc1CC=C(C)C)C(=O)C[C@@H](c1ccc(O)cc1)O2 | – | pH 7.4, 37 °C | 182 |
| B1 (enzyme R201K) | O=P(O)(O)O | – | pH 6.5, 25 °C, apparent, not purified | 8.33 |
| B2 (UGT3A2 S435Y) | O=c1ccn([C@@H]2O[C@H](CO[P@@](=O)(O)O[P@@](=O)(O)O[C@H]3O[C@H](CO)[C@@H](O)[C@H](O)[C@H]3O)[C@@H](O)[C@H]2O)c(=O)[nH]1 | – | pH 7.4, 37 °C, not purified, added: 1-OH-pyrene 16 µM, MgCl2 10 mM, alamethicin | 0.55 |
| B3 (FMO3 E158K/E308G) | CN1CCC[C@H]1c1cccnc1 | HEK293 microsomes | 37 °C, not purified, added: NADPH regenerating system | 0.0149 |
| UGT3A2 (Homo sapiens, UniProt Q3SY77) | O=c1ccn([C@@H]2O[C@H](CO[P@@](=O)(O)O[P@@](=O)(O)O[C@H]3O[C@H](CO)[C@@H](O)[C@H](O)[C@H]3O)[C@@H](O)[C@H]2O)c(=O)[nH]1 | – | pH 7.4, 37 °C, not purified, added: 1-OH-pyrene 16 µM, MgCl2 10 mM, alamethicin | 4.7 |
| B4 (COMT) | O=c1oc2c(O)c(O)ccc2cc1-c1nc2ccccc2s1 | dog liver S9 | pH 7.4, 37 °C | 627 |
| B5 (CMBL) | Cc1oc(=O)oc1COC(=O)[C@@H]1N2C(=O)[C@@H](NC(=O)[C@H](N)c3ccccc3)[C@H]2SC1(C)C | lysate | pH 7.4, 37 °C, not purified | 63.1 |
| B6 (enzyme) | CC/C=C\CC1=C(C)[C@@H](O)CC1=O | – | pH 7.5, 25 °C | 122 |
| B7 (UGT1A9) | O=c1cc(-c2ccc(O)cc2)oc2ccccc12 | – | pH 7.4, 37 °C | 67.6 |
| FMO3 (Homo sapiens, UniProt P31513) | CN1CCC[C@H]1c1cccnc1 | HEK293 microsomes | 37 °C, not purified, added: NADPH regenerating system | 0.0161 |

Repeated from above:
| Molecule | substrate | system | setting | Vmax/Km [µL/min/mg] |
| --- | --- | --- | --- | --- |
| B2 (UGT3A2 S435Y) | O=c1ccn([C@@H]2O[C@H](CO[P@@](=O)(O)O[P@@](=O)(O)O[C@H]3O[C@H](CO)[C@@H](O)[C@H](O)[C@H]3O)[C@@H](O)[C@H]2O)c(=O)[nH]1 | – | pH 7.4, 37 °C, not purified, added: 1-OH-pyrene 16 µM, MgCl2 10 mM, alamethicin | 0.55 |
| FMO3 (Homo sapiens, UniProt P31513) | CN1CCC[C@H]1c1cccnc1 | HEK293 microsomes | 37 °C, not purified, added: NADPH regenerating system | 0.0161 |
